Experimental data pooled from the literature.
Lines come from different studies, so protocols differ.
CYP3A4: Cytochrome P450 3A4 (CYP3A4, Homo sapiens, UniProt P08684)
UniProt P08684, sequence (whole entry, looked up): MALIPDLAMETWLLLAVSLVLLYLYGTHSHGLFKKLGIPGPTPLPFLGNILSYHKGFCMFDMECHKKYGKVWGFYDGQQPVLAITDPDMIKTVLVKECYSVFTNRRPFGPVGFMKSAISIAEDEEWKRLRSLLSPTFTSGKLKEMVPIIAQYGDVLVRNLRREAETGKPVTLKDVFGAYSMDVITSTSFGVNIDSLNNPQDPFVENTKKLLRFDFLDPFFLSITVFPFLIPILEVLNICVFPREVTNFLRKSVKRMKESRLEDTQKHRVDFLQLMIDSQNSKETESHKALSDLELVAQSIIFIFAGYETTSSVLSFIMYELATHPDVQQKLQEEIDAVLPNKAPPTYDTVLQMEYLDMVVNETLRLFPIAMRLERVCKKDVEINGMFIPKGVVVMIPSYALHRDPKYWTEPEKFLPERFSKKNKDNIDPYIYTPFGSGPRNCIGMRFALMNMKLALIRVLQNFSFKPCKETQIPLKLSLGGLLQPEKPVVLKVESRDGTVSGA
UniProt P20813, sequence (whole entry, looked up): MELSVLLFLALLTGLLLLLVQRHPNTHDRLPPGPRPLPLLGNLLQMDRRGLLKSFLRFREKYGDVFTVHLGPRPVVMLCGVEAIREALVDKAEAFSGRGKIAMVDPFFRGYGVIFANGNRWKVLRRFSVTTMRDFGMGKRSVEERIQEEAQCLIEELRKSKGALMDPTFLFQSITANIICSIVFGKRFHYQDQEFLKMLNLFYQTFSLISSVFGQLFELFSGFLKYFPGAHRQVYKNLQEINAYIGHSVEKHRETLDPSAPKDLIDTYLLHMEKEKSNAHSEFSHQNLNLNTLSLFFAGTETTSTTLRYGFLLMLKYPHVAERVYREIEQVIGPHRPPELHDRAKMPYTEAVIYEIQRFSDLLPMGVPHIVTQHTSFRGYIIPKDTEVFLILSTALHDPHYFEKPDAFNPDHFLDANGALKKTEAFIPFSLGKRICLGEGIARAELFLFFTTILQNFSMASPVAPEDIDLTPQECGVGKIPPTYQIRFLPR
UniProt O70423, sequence (whole entry, looked up): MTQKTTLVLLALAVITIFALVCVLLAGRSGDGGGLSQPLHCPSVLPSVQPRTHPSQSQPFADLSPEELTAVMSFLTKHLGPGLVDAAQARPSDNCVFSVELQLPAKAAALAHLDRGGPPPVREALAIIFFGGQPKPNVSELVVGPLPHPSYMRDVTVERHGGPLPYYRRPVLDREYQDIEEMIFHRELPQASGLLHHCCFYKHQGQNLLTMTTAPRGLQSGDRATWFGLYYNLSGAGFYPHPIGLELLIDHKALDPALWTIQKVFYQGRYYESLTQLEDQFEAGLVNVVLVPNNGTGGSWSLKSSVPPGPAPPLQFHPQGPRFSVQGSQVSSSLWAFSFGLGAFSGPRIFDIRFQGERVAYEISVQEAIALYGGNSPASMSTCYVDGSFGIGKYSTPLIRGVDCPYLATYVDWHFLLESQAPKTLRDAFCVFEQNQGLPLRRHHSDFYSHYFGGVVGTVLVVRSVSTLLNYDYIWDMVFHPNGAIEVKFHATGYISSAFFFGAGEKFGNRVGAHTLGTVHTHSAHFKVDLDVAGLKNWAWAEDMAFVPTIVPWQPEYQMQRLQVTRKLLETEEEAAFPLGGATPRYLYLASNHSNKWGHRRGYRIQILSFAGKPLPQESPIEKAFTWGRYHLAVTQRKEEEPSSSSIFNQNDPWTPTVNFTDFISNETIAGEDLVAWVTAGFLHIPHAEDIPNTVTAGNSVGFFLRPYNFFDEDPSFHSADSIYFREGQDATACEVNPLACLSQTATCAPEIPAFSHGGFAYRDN

`CC[C@H]1[C@@H](O)[C@@H]2[C@H](CC[C@]3(C)[C@@H]([C@H](C)CCNC(=O)NS(=O)(=O)c4ccc(C(C)(C)C)cc4)CC[C@@H]23)[C@@]2(C)CC[C@@H](O)C[C@@H]12` gave an AUC(0-t) of 421 ng·h/mL (CYP3A4; human, plasma; dose not given, mean, alone).
`Cc1cc(Nc2ncnc3ccc(NC4=NC(C)(C)CO4)cc23)ccc1Oc1ccn2ncnc2c1`: “CL/F, geometric mean” 89.5 L/h (CYP3A4; human, plasma; oral, 300 mg, day 1, single dose alone).
`NCc1cc2c(cc1F)C(=O)N(C1CCC(=O)NC1=O)C2` (stereo not drawn) gave a concentration of 0.7 µM (Amine oxidase [copper-containing] 3 (Mus musculus, UniProt O70423); substrate, LC-MS/MS; recombinant mouse enzyme; 10 µM, 20 h, pH 7.4).
`CCCCC1=NC2(CCCC2)C(=O)N1Cc1ccc(-c2ccccc2S(=O)(=O)Nc2noc(C)c2C)c(COCC)c1` gave a kinact of 3.17 h⁻¹ (CYP3A4; mechanism-based inhibitor).
`C=C(F)C(=O)N1CCN(c2nc(OC[C@@H]3CCCN3C)nc3c2CCN(c2cccc4cccc(Cl)c24)C3)C[C@@H]1CC#N` has a Tmax of 8 h (CYP3A4; healthy volunteers, plasma; 200 mg, median, added: itraconazole once daily).
`CC(C)C(=O)Oc1ccc(CO)cc1[C@H](CCN(C(C)C)C(C)C)c1ccccc1` gave an intrinsic clearance of 83.3 µL/min/mg protein (H+/organic cation antiporter; cell uptake; hCMEC/D3).
`C=CC(=O)N(C)CCOc1c(N)ncnc1-c1cc(F)cc(NC(=O)c2ccc(C3CC3)cc2F)c1C` gave a Vmax of 0.11 min⁻¹ (Cytochrome P450 2B6 (CYP2B6, Homo sapiens, UniProt P20813); recombinant enzyme; potassium phosphate buffer; pH 7.4).
With `CCCCN1CCCCC1C(=O)Nc1c(C)cccc1C` (stereo not drawn) the intrinsic clearance was 6.9 µL/min/mg protein (H+/organic cation antiporter; cell uptake; hCMEC/D3).
With `N#C[C@H](C[C@@H]1CCCNC1=O)NC(=O)[C@H](CC1CC1)NC(=O)c1cc2cccc(Cl)c2[nH]1` the half-life was 0.89 min (CYP3A4; NADPH metabolic stability; 2 µM, pH 7.4, 37 °C, 100 pmol/mL enzyme).

A few entries again:
`NCc1cc2c(cc1F)C(=O)N(C1CCC(=O)NC1=O)C2` (stereo not drawn) gave a concentration of 0.7 µM (Amine oxidase [copper-containing] 3 (Mus musculus, UniProt O70423); substrate, LC-MS/MS; recombinant mouse enzyme; 10 µM, 20 h, pH 7.4).
